# Measured values of several laboratories.
# A part holds a random share of what one study measured. Substitutions count along the parent as printed.

# Block 1
# Target: PABPC1L2, full length, GST fusion (mouse, UniProt A0ABA7IW68)
# Method: RNAcompete
# Form: RNA
# Matrix: in vitro
# Tested at: 20 nM
# Notes: 7-mer, probes averaged, single round
# Relative to: mean of 7-mers
# Direction: higher = stronger binding
# Construct (chain): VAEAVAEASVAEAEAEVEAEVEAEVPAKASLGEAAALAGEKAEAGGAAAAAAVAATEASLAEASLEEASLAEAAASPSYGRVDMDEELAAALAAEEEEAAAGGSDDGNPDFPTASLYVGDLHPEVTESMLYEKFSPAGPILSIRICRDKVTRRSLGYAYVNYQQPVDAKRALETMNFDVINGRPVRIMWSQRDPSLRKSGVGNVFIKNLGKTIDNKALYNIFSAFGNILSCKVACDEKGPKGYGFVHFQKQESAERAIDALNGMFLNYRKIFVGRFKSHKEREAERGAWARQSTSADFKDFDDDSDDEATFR
Strand,7-mer Z-score
GUCCUAC,-0.351
UCCAACG,-0.106
AGCAGGC,0.229
UAUCAGA,-0.0047
GGCAAGC,-0.0301
CGCCUCG,-0.367
GCUUUUA,-0.0156
UGGAGAC,0.0569
GUAACCU,-0.204
AUCGUAG,-0.206
AGAGAUC,-0.173
CCCGGAG,-0.0518
GGGUAUU,-0.0409
UAGCUUU,-0.264
CGGCUAA,-0.104
GGGUUUA,-0.112
GCUAAUG,-0.267
CAACAUG,-0.00833

# Block 2
# Target: ABI1, truncated, D143A, DHFR fusion (Arabidopsis thaliana, UniProt P49597)
# Method: DHFR PCA, dose-response
# Matrix: yeast
# Notes: Hill fit, mean, not affinity
# With: (+)-ABA, dose series
# Direction: lower = more sensitive
# Starting sequence: PYL1, truncated, DHFR fusion (Arabidopsis thaliana, UniProt Q8VZS8); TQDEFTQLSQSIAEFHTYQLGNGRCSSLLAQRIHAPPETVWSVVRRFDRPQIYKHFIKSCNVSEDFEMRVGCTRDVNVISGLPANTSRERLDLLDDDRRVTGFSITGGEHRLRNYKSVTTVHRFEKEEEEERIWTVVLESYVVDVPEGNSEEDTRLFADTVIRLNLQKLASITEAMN
Change,ABA EC50
D144N,21.9 µM
E128T,2.71 µM
I105E,583 µM
P146F,428 µM
G102E,337 µM
K126V,1.43 µM
V118Q,49.2 µM
K168I,22.7 µM
D65Q,4.02 µM
A158L,2.28 µM
S150H,34.2 µM
D153Q,18.6 µM
T86N,0.422 µM
S9I,17.7 µM
N77A,2.07 µM
N61D,1.79 µM

# Block 3
# Target: RNA binding protein fox-1 homolog 2, RRM domain, GST-SBP tag (RBFOX2, Homo sapiens, UniProt O43251-10, residues 100-194)
# Method: RNA Bind-n-Seq
# Form: RNA
# Matrix: in vitro
# Tested at: 365 nM
# Notes: natural RNA segment, single round, ends assumed
# Relative to: no-protein control
# Direction: higher = stronger binding
# All sequences stand within: GGGAGUUCUACAGUCCGACGAUC … UGGAAUUCUCGGGUGCCAA
# Residues (chain): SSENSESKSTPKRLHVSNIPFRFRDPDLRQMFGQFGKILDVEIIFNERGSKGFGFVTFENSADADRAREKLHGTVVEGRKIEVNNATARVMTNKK
Strand,RBNS enrichment (R)
GUCACUGCCUACUGCCUGGGGGCUCUAGUCAUUCCAGUGGAAGACGAAUGUAACCUGCGUGGUGAUGUGACAACUGUUUCCUCCCUGACCCCAGAGGAUCUGGCUCUAGG,0.245
AAAAACUCGUUCGGAGAAAAGACAGCUUCUGCCUUCCCUACCAGGCGGACAGGGUACUCACUGUGCCGACGUGAGCAGACACAGCCAGAGGCUCAAGUGCCCUUGCCGAG,0.251
AGGAUACUCUUGUACCUGUGGUUCAUGCUUGAAAUGUUAAAGAUUCCUUAAUCCAACUUAUACCGGGUUGGAGGCACUUGUACUAUUUAUUUCCUGGGAAAUUUUGGUCA,0.784
GGCUCUCCUCUUUUGAGCAUGUGUUAGCAUUUUUAUUUUAUACUCAUCCAGUGAACUCUGCUCUUCCAAGUGUGUUCAUGUAUGUGCUAGAUAUAUUAGCACAGCCUGCC,6.17
CCCAGGCUGGGGCUAUGCGCCGUCCCCCUACACUUCUGCCAGUGCCUUACUUCCUGGAGACCCACCCUGGGGUACCCCACUGCAGGGGGGUACCCCCUUUGCACUUUGAC,0.738
UAAAACAAUCUAAAACAAUUCCCUUCUUUUUCAUCCCAGACCAAUGGCAUUAUUAGGUCUUAAAGUAGUUACUCCCUUCUCGUGUUUGCUUAAAAUAUGUGAAGUUUUCC,0.964
GUGGAGUUGGGUUUGGAAGCUGGUGCCCAGUUGGUGUGGAGUGUGUAGUUUUGUUAUGAAAGUUCUCUACCACCUACCUGUGUGAGUGACACCAACAUCCAGAUGUCACA,0.928
UGCAGGCAAAGGAAACCCUCUGCUGCUUCCUUCCCCAGGAGCCAGGUGGGCACUGAAUGUGGUUUUUAGAUUUUUGUAUUGUGGACUGUCUUUGCCUCAUAUUAAAAACU,1.15
CAAGCUAGAGAUUUUCAAAGCUACACUUUUGAGUAAAAACCCUUAUUAAAAGAAAAACAUGAUUAAUUUUUUGUCUAUUCCUUUUUUUGGAGUGGGACAGGCCCUGUGAG,1.11
CCAUUGAUUCAGGAAGCAGAUUUUUUGAGUGCCUAUAUGUGAGACAGUGUGCUGGUUGAAGGCCUGAUGCUGUUAUUCCAGGAGACUGCAGGCCCUUGAUGCCAGGACUC,0.532
CACCACAGAUUAUGUUGACGUAUUUUCUUCUGUAUUUUCUUGGUGGGACUUGAGAUUUGAGGAAAAAAGAUGCUUAUUUGGAAUUUCUAUUAAGAACUAUCCUUGUUAUU,0.438
CCGCUAGAGCCCCUCUCCCUACCUUCUGCCUGUUUUCUCCAAUAAAUGCGGAAGGAGUUAAACUUCAUGCCUCUUGUGUCUUUGGGUGUUUGGGAGAAGUAGCAGGGUGG,0.611

# Block 4
# Organism: Saccharomyces cerevisiae
# Read-out: cell growth
# Method: competitive growth deep sequencing
# Form: peptide
# Notes: peptide tiling library
# With: cyclin E2-Cln2 fusion
# Direction: direction not given
Molecule,enrichment score
NESHLDKEHDAVEVAD,0.434
DVSERGYVILPNDYFE,0.584
AEHPKPSACRNLFGPV,0.965
ATNSSHTDAHEILVSD,0.688
GTPKRCLDLSNLSSGE,0.0457
AKRSLGFLPQPVPL,-0.15
YLYLLLTQSLWCRV,-0.616
EPRNLLSLFEDTLDPT,0.521
VLPGGVPSPGASLTSM,-1.08
HPESPPRKRLKSKGSD,4.35
RTEALEQGGLPKKLIF,0.724
ESSQLTVQAEFDMSAI,0.662
QNPCGSKACRRLFGPV,0.17

# Block 5
# Target: Histone acetyltransferase KAT6A, both winged helices, GST fusion (KAT6A, Homo sapiens, UniProt Q92794, residues 1-181)
# Method: protein binding microarray
# Form: double-stranded DNA, one strand shown
# Matrix: in vitro
# Tested at: not given
# Notes: 8-mer, flanks averaged, mean of 2 arrays, mostly near background
# Relative to: not given
# Direction: higher = stronger binding
# Construct (chain): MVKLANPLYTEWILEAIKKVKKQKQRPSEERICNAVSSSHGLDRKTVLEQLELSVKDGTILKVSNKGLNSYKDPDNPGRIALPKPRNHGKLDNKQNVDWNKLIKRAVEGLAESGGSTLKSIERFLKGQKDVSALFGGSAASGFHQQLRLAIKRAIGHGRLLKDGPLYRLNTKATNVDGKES
Strand,E-score
AGTGCAAC,-0.0513
CTTGGCCA,-0.23
CTGTACCC,0.0504
AGAATGAC,-0.0998
CTCTATGC,0.0447
GCCACAAA,-0.0707
ATCTTGCC,0.0324
CGGAAGCA,0.158
GTGTATGA,-0.0649
AAGCCTGA,-0.158
AGTCAACC,-0.187
ACTCCTCT,-0.151
CCAGTCGG,0.0261
AACCACCG,0.143
GCCCACCC,0.0183
CGCGGCCA,0.324

# Block 6
# Target: Prothrombin, mature alpha-thrombin (F2, Homo sapiens, UniProt P00734)
# Method: aptamer microarray, sandwich
# Form: DNA with 2'F-ANA
# Matrix: in vitro
# Tested at: 200 nM
# Notes: whole 15-mer aptamer, many near background
# With: Cy3 exosite-II aptamer, 400 nM
# Direction: higher = stronger binding
# Strand: GGTTGGTGTGGTTGG
Modification,mean fluorescence intensity
2'F-ANA at 1 3 7 8 10 11 12 13 14 15,66.8 a.u.
2'F-ANA at 3 8 10 11 15,492 a.u.
2'F-ANA at 2 4 5 8 10 12,58.7 a.u.
2'F-ANA at 2 4 5 6 7 8 10 11 14,76.9 a.u.
2'F-ANA at 1 4 5 8 9 12 14,51 a.u.
2'F-ANA at 2 4 6 7 11 12 13 15,292 a.u.
2'F-ANA at 1 2 4 9 10 11 12 15,57 a.u.
2'F-ANA at 1 4 5 6 7 8 11 13,51.4 a.u.
2'F-ANA at 1 4 5 7 10 11 13 15,47.2 a.u.
2'F-ANA at 1 2 5 7 8 12 13 14 15,47.9 a.u.
2'F-ANA at 5 6 8 9 10 14,43.4 a.u.
2'F-ANA at 3 4 5 7 8 11 13 14 15,53.7 a.u.
2'F-ANA at 1 2 4 7 9 10,50 a.u.
2'F-ANA at 3 4 9 10 11 13,257 a.u.
2'F-ANA at 2 6 8 9 10 12 14,86.2 a.u.
2'F-ANA at 1 3 6 7 8 9 15,298 a.u.
2'F-ANA at 1 3 4 6 8 12 15,432 a.u.
2'F-ANA at 6 8 10 11 12 13 14,96.7 a.u.
2'F-ANA at 1 8 9 10 11 12 13 14,53.3 a.u.
2'F-ANA at 3 7 9 10 11 13 15,496 a.u.
2'F-ANA at 2 3 4 5 7 8 14 15,53.9 a.u.
2'F-ANA at 1 2 4 5 7 9 10 12,50.6 a.u.
2'F-ANA at 1 2 6 7 8 9 13 15,115 a.u.
2'F-ANA at 1 4 10 12 13 15,56.8 a.u.

# Block 7
# Target: Sal-like protein 4, full length isoform B (SALL4, Homo sapiens, UniProt Q9UJQ4-2, residues 1-616)
# Method: universal PBM
# Form: double-stranded DNA, one strand shown
# Matrix: in vitro
# Tested at: not given
# Notes: 8-mer, flanks averaged, mean of replicates
# Direction: higher = stronger binding
Strand,E-score
GATTACGC,0.115
AATTAGTG,0.167
AAGAGCGT,0.0691
ACGATGGG,-0.102
GGCGTCTA,-0.15
GTCCGTAA,-0.108
GGCCACAC,-0.176
GAGAGCAA,-0.0919
AGGCCGTG,-0.219
ATGGAATC,0.117
GATAGCAA,0.201
CGGCTACC,-0.316
TAAACTAA,0.325
CTAGGCTC,-0.237
CTTTTGAC,0.0565
TCGACCCA,-0.128
CAGGACTG,-0.261
TAATAGGA,0.313
CACAGACA,0.178
CCAGGTCG,-0.295
TCAGTGAA,-0.0938
AAACGGAG,-0.0177
AAGTGCAT,0.18
AGCTTCTA,-0.0102
CTGAGGGA,-0.194

# For quick reference, copied from above (block 7):
Strand,E-score
CAGGACTG,-0.261
CGGCTACC,-0.316
AGGCCGTG,-0.219
GGCGTCTA,-0.15
CTAGGCTC,-0.237
ATGGAATC,0.117
AAGTGCAT,0.18
ACGATGGG,-0.102
GATAGCAA,0.201
CCAGGTCG,-0.295
GTCCGTAA,-0.108
TCAGTGAA,-0.0938
TAAACTAA,0.325
CTTTTGAC,0.0565
TCGACCCA,-0.128
AAGAGCGT,0.0691
TAATAGGA,0.313
CTGAGGGA,-0.194
AGCTTCTA,-0.0102
